# Assay results from different studies.
# Each line is one published result; not all experiments were run side by side. Numbers after ± are the reported error.
# Aminopeptidase N: Aminopeptidase N (Neisseria meningitidis, UniProt Q9JYV4)
# Sequence of UniProt Q62968 (whole entry, looked up): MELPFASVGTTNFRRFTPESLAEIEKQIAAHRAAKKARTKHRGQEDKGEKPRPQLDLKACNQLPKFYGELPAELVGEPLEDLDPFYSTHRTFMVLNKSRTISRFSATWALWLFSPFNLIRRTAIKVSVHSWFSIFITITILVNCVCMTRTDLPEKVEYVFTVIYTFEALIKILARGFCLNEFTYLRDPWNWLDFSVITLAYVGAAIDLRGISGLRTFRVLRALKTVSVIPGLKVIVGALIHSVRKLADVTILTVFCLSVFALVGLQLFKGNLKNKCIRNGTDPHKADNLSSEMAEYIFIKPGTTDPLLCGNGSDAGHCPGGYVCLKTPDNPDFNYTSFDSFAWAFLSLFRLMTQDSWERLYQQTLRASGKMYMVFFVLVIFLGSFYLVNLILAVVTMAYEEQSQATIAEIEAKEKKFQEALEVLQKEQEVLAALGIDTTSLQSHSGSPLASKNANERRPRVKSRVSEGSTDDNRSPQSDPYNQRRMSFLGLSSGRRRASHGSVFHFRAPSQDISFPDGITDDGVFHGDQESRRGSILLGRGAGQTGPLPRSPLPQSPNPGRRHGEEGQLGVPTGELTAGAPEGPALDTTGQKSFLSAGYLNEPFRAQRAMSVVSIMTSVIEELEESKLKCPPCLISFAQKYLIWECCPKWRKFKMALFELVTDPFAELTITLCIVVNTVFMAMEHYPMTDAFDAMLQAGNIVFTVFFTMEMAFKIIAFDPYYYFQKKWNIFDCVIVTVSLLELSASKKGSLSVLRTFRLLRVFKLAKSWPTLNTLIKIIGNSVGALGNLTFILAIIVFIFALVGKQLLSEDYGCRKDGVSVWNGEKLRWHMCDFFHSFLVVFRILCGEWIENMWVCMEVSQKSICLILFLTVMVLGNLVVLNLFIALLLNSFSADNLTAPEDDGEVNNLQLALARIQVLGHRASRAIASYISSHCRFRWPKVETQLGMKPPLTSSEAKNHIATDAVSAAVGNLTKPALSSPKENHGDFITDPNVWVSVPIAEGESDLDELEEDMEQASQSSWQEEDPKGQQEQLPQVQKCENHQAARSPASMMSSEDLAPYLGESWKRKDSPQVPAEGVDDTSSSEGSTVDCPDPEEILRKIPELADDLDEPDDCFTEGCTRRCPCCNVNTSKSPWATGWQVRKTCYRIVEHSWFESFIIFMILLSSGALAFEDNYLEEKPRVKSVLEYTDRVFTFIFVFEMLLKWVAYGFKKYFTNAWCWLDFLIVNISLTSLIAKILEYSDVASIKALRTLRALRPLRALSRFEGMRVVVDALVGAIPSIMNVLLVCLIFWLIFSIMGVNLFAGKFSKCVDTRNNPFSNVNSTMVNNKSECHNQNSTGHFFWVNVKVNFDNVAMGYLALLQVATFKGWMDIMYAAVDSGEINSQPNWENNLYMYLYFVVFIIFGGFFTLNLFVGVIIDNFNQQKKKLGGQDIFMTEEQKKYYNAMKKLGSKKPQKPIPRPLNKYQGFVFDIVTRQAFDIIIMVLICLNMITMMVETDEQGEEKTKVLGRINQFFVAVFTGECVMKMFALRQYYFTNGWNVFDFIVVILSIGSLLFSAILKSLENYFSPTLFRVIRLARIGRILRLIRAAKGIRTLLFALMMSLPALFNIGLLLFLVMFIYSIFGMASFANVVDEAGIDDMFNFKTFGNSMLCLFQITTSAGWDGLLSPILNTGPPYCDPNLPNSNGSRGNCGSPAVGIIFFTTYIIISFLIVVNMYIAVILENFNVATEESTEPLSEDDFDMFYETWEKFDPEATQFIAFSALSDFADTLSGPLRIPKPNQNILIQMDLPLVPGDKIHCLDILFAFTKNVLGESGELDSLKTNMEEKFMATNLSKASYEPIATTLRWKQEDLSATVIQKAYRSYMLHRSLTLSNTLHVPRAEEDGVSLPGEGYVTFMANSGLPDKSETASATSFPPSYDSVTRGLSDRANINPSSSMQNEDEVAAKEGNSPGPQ
# Sequence of UniProt P48029 (whole entry, unmodified, looked up): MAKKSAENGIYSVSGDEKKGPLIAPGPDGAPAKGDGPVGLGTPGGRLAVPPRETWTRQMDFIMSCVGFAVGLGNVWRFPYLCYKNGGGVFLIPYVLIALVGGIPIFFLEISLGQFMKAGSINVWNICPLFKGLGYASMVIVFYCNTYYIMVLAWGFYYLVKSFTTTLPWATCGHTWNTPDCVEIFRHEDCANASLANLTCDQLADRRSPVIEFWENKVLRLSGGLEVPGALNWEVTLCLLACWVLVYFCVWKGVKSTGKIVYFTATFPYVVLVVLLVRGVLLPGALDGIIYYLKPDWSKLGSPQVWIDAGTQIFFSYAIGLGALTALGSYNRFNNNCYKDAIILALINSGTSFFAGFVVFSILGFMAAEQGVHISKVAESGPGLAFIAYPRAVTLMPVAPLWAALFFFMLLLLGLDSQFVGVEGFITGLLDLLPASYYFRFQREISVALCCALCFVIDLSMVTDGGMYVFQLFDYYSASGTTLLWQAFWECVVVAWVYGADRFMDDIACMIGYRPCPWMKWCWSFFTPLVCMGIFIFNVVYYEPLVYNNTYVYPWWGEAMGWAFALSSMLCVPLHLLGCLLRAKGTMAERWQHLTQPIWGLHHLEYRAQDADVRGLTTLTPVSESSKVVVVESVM
# Sequence of UniProt P81183 (whole entry, unmodified, looked up): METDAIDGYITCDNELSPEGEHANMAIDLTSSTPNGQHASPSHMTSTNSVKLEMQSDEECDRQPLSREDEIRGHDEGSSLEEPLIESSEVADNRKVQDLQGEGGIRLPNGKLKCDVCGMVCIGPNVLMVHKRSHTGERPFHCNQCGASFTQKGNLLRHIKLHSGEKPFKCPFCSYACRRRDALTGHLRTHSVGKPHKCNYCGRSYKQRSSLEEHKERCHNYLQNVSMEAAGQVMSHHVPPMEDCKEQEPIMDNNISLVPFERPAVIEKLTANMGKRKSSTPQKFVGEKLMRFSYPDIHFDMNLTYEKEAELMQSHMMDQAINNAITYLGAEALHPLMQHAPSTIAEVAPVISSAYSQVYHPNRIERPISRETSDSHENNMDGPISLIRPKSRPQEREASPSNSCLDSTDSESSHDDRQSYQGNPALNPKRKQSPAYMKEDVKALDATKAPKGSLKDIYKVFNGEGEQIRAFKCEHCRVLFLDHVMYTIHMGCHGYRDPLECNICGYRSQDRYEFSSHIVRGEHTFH
# Sequence of UniProt P55211 (whole entry, looked up): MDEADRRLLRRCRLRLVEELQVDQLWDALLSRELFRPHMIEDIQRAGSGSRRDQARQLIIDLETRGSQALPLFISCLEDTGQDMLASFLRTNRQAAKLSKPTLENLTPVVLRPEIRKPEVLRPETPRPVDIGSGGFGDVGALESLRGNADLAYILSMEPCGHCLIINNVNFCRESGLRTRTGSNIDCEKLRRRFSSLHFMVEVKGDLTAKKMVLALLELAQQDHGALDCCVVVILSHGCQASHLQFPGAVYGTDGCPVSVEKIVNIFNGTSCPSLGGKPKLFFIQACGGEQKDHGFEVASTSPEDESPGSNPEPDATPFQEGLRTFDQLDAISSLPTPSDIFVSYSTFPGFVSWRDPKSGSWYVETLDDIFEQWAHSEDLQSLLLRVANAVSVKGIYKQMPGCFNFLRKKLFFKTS
# Sequence of UniProt Q9H008 (whole entry, looked up): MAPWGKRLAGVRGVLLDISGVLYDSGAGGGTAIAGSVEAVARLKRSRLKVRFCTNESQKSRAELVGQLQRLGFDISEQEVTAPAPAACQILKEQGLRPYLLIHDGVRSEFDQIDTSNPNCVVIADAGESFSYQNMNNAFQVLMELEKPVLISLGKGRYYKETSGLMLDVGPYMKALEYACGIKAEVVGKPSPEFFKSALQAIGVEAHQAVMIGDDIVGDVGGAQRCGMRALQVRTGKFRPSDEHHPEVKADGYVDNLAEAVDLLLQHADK
# Sequence of UniProt Q8C7D2 (whole entry, unmodified, looked up): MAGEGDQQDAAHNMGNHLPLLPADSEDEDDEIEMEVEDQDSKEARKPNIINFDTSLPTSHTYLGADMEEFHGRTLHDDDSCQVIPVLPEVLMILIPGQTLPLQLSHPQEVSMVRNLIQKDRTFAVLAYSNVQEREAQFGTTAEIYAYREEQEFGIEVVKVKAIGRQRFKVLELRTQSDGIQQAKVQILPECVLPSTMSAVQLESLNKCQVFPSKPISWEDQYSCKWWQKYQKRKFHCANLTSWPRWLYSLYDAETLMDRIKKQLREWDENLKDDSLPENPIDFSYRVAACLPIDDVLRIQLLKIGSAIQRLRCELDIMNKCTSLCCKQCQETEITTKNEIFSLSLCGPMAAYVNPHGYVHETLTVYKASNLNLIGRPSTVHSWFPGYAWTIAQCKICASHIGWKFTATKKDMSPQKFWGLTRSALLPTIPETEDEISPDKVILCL
Structure (SMILES),target,test,system,setting,how to read,quantity,result
CC(=O)NC(Cc1ccc(Br)c(Cl)c1)C(=O)N[C@@H](C)C(=O)N1CCC[C@H]1C(=O)N1CCC[C@H]1C(=O)N[C@@H](CCC(=O)O)C(=O)N[C@@H](Cc1c[nH]cn1)C(=O)N[C@@H](CO)C(=O)N[C@H](C(=O)N[C@@H](C)C(N)=O)[C@@H](C)OP(=O)(O)O (some centres unmarked),"Protein kinase C alpha type (PRKCA, Homo sapiens, UniProt P17252)",,,10 µM,,inhibition,1.58 ± 0.08%
CC(=O)N[C@H]1C(O)O[C@H](CO)[C@@H](O[C@@H]2O[C@H](CO)[C@H](O)[C@H](O)[C@H]2O)[C@@H]1O (some centres unmarked),"Galectin-3 (LGALS3, Homo sapiens, UniProt P17931)","binding, isothermal titration calorimetry",,full-length protein,,–ΔG,6.14 kcal/mol
NC(=O)Cc1cc(=O)oc2cc(NC(=O)[C@@H](N)Cc3ccc(O)cc3)ccc12,Aminopeptidase N,"enzyme activity, substrate",,"pH 7.5, 37 °C",,Km,46.4 ± 2.5 µM
O=C(NC1(Cc2cccc(F)c2)CCC1)c1ccc(S(=O)(=O)F)cc1,"Sodium- and chloride-dependent creatine transporter 1 (SLC6A8, Homo sapiens, UniProt P48029, P544L)",PathHunter trafficking,U-2 OS expressing SLC6A8,24 h,baseline: DMSO,maximal surface localization,~2 fold
O=C(O)COc1ccc(Cl)cc1,"Chloride channel protein (Torpedo marmorata, UniProt P21564, C212S)","macroscopic current, noise analysis",,"20 mM, -140 mV",,lower corner frequency,5.1 Hz
CC(C)C[C@H](NC(=O)[C@@H]1CCCN1C(=O)[C@H](CCCCN)NC(=O)C[C@@H]1O[C@@H](C)[C@@H](O)[C@@H](O)[C@@H]1O)C(=O)NCCCC[C@H](NC(=O)[C@H](CC(C)C)NC(=O)[C@@H]1CCCN1C(=O)[C@H](CCCCN)NC(=O)C[C@@H]1O[C@@H](C)[C@@H](O)[C@@H](O)[C@@H]1O)C(=O)N[C@@H](Cc1ccccc1)C(=O)N[C@@H](CS)C(N)=O,"Fucose-binding lectin PA-IIL (lecB, Pseudomonas aeruginosa, UniProt Q9HYN5)","binding, isothermal titration calorimetry",,divided by fucoside copies,baseline: monovalent fucoside KD over ligand KD,relative potency per fucoside,1.3
Nc1nc2c([C@@H]3O[C@@H]4COP(=O)(O)O[C@H]5[C@@H](O)[C@H](n6cnc7c(=O)[nH]c(N)nc76)O[C@@H]5COP(=O)(O)O[C@H]4[C@H]3O)scc2c(=O)[nH]1,"Cyclic di-GMP phosphodiesterase RocR (rocR, Pseudomonas aeruginosa, UniProt Q9HX69)","substrate, HPLC",,"10 µM, added: 100 nM enzyme",,cleavage rate constant k2,5 ± 0.57 s⁻¹
CC(=O)OC1C(C)C(OC2CC3OCOC3C(C)O2)C=COC2(C)Oc3c(C)c(O)c4c(c3C2=O)C(=O)C=C(NC(=O)C(C)=CC=CC(C(C)OC(=O)C(C)(C)CC(=O)O)C(O)C(C)C(O)C1C)C4=O (centres unmarked),"DNA-directed RNA polymerase subunit beta (rpoB, Escherichia coli K-12, UniProt P0A8V2, S531L)",inhibitor,,,baseline: compound over rifampicin,activity ratio,10
CCc1cc(Cc2ccccc2)cc2c1NCCC2NC(=O)C(N)Cc1c(C)cc(O)cc1C (centres unmarked),"Delta-type opioid receptor (Oprd1, Rattus norvegicus, UniProt P33533)","GTPγS binding, agonist",C6 cells expressing DOR,,baseline: DPDPE at 10 µM,maximal stimulation,45%
O=C(Nc1cccnn1)N1CCC(=Cc2cccc(Oc3ccc(C(F)(F)F)cn3)c2)CC1,"Fatty-acid amide hydrolase 1 (Faah, Mus musculus, UniProt O08914)","enzyme activity, inhibitor, ex vivo","mouse, liver","oral, 8 h",,ED50,2 µg/kg
CC(C)P(=[Se])(NP(=[Se])(C(C)C)C(C)C)C(C)C,"Alpha-amylase (Bacillus subtilis, UniProt P00691)",fluorescence quenching,,"concentration not given, pH 6.8, 310 K",,ΔG of binding,-5.29 kcal/mol
NCCCC[C@H](N)C(=O)Nc1ccc2c(CC(N)=O)cc(=O)oc2c1,Aminopeptidase N,"enzyme activity, substrate",,"3 µM, pH 7.5, 37 °C",baseline: L-hArg-ACC,relative hydrolysis rate,< 20%
CC(=O)NCC(=O)NCC(=O)N[C@@H](COP(=O)(O)O)C(=O)NCC(=O)NCC(N)=O,"Phospholysine phosphohistidine inorganic pyrophosphate phosphatase (LHPP, Homo sapiens, UniProt Q9H008)",enzyme activity,,"concentration not given, 90 min, pH 7.8, added: substrate 100 µM",,substrate hydrolysis,7.37%
CC(=O)N[C@H]1[C@H]([C@H](O)[C@H](O)CO)O[C@@](OCCCNC(=O)OCc2ccccc2)(C(=O)O)C[C@@H]1O[C@H]1O[C@H](CO[C@]2(C(=O)O)C[C@H](O)[C@@H](NC(C)=O)[C@H]([C@H](O)[C@H](O)CO)O2)[C@H](O)[C@H](O)[C@H]1O,"siaD (Neisseria meningitidis, UniProt O33390)",substrate,,added: UDP-Gal,,Km,890 ± 100 µM
CC(C)CCN(Cc1ccc(Cl)cc1)c1nc(C#N)nc(N2CCOCC2)n1,"CPL (Toxoplasma gondii, UniProt Q6DMN0)","enzyme activity, inhibitor",,,baseline: human over Toxoplasma IC50,selectivity ratio,0.2
CC(C)C[C@H](NC(=O)[C@H](CCC(=O)O)NC(=O)[C@H](C)NC(=O)[C@H](CCC(=O)O)NC(=O)[C@H](CCC(=O)O)NC(=O)[C@H](Cc1c[nH]cn1)NC(=O)[C@H](CCCNC(=N)N)NC(=O)[C@H](CCC(=O)O)NC(=O)[C@H](CC(N)=O)NC(=O)[C@H](CCCCN)NC(=O)[C@H](CC(C)C)NC(=O)[C@H](CCCNC(=N)N)NC(=O)[C@H](CCC(N)=O)NC(=O)[C@H](CC(C)C)NC(=O)[C@H](CCC(=O)O)NC(=O)[C@H](C)NC(=O)[C@H](CC(N)=O)NC(=O)[C@H](C)NC(=O)[C@@H](NC(=O)[C@H](CC(C)C)NC(=O)[C@H](CCCCN)NC(=O)[C@H](CCC(=O)O)NC(=O)[C@@H](NC(=O)[C@H](CO)NC(=O)CN)C(C)C)[C@@H](C)O)C(=O)N[C@@H](CCC(=O)O)C(=O)N[C@@H](CCCNC(=N)N)C(=O)N[C@@H](CC(C)C)C(=O)N[C@@H](CCCCN)C(=O)N[C@@H](CO)C(=O)N[C@@H](CCC(=O)O)C(=O)N[C@@H](Cc1ccc(O)cc1)C(=O)O,"Plasminogen (PLG, Homo sapiens, UniProt P00747, C188G/E240D/L256Y)","binding, SPR",,pH 7.4,,koff,0.0704 s⁻¹
CC(=O)N[C@@H](CC(C)C)C(=O)N[C@@H](CCC(=O)O)C(=O)N[C@@H](Cc1c[nH]cn1)C(=O)N[C@@H](CC(=O)O)C(=O)Nc1ccc2c(C)cc(=O)oc2c1,"Caspase-9 (CASP9, Homo sapiens, UniProt P55211)",substrate,,"concentration not given, full-length",,Vmax,139 ± 8.11 RFU/min
Cn1ccc(-c2ccc(Cn3cc(C(=O)N[C@H]4CCCC[C@@H]4O)c4c(F)cc(F)cc43)cn2)n1,"Muscarinic acetylcholine receptor M1 (Chrm1, Rattus norvegicus, UniProt P08482)","calcium mobilization, agonist",CHO cells,,baseline: ACh maximum,maximum response,65 ± 9%
Cn1cc(-c2cccc(CN3CCC4(CC3)COc3c4ccc4c3CN([C@H]3CCC(=O)NC3=O)C4=O)c2)cn1,"Ikzf2/Crbn (Mus musculus, UniProt P81183+Q8C7D2, I391V)",,"mouse Crbn I391V, spleen","oral, 100 mg/kg single dose, 6 h",,degradation,89%
CCCCC/C=C\C/C=C\C/C=C\C/C=C\CCCC(=O)NC(CO)C(=O)O (stereo in doubt),"Potassium voltage-gated channel subfamily KQT member 4 (KCNQ4, Homo sapiens, UniProt P56696)","potassium current, two-electrode voltage clamp",,10 µM,,maximal conductance,no effect
O=C(O)CCCC(=O)O,"Cholinesterase (BCHE, Homo sapiens, UniProt P06276)","enzyme activity, inhibitor, Ellman",,500 µg/mL,,inhibition,69.1%
CCN(Cc1ccccc1)C(=O)CCc1nc(CN2CCN(C(=O)Cc3ccc(OC)c(OC)c3)CC2)no1,"Sodium channel protein type 10 subunit alpha (Scn10a, Rattus norvegicus, UniProt Q62968)","sodium current, whole-cell patch clamp",rat DRG neurons,10 µM,,inactivation V1/2,-62.8 mV
CC[C@H](C)[C@H](NC(=O)[C@H](CC(C)C)NC(=O)[C@H](CCC(=O)O)NC(=O)[C@H](CO)NC(=O)[C@@H](N)CC(N)=O)C(=O)N[C@@H](CC(N)=O)C(=O)N[C@@H](CO)C(=O)N[C@@H](CC(C)C)C(=O)N[C@@H](CC(C)C)C(=O)N[C@@H](CO)C(=O)N[C@@H](CC(C)C)C(=O)N1CCC[C@H]1C(=O)N[C@@H](CCCCN)C(=O)N[C@@H](CC(N)=O)C(=O)N[C@@H](CCSC)C(=O)N[C@@H](CC(N)=O)C(=O)N[C@@H](CC(=O)O)C(=O)N[C@@H](C)C(N)=O,"PDF receptor (Pdfr, Drosophila melanogaster, UniProt Q9W4Y2)","cAMP level, agonist, Epac FRET","Drosophila, isolated brain s-LNv neurons","1 µM, 180 s",,response attenuation,1.2 ± 9.7%

# For quick reference, copied from above:
Structure (SMILES),target,test,system,setting,how to read,quantity,result
CC(=O)N[C@@H](CC(C)C)C(=O)N[C@@H](CCC(=O)O)C(=O)N[C@@H](Cc1c[nH]cn1)C(=O)N[C@@H](CC(=O)O)C(=O)Nc1ccc2c(C)cc(=O)oc2c1,"Caspase-9 (CASP9, Homo sapiens, UniProt P55211)",substrate,,"concentration not given, full-length",,Vmax,139 ± 8.11 RFU/min
CC(C)C[C@H](NC(=O)[C@@H]1CCCN1C(=O)[C@H](CCCCN)NC(=O)C[C@@H]1O[C@@H](C)[C@@H](O)[C@@H](O)[C@@H]1O)C(=O)NCCCC[C@H](NC(=O)[C@H](CC(C)C)NC(=O)[C@@H]1CCCN1C(=O)[C@H](CCCCN)NC(=O)C[C@@H]1O[C@@H](C)[C@@H](O)[C@@H](O)[C@@H]1O)C(=O)N[C@@H](Cc1ccccc1)C(=O)N[C@@H](CS)C(N)=O,"Fucose-binding lectin PA-IIL (lecB, Pseudomonas aeruginosa, UniProt Q9HYN5)","binding, isothermal titration calorimetry",,divided by fucoside copies,baseline: monovalent fucoside KD over ligand KD,relative potency per fucoside,1.3
